Measurements from different studies.
A part holds a random share of what one study measured.
UniProt Q14004, sequence (whole entry, looked up): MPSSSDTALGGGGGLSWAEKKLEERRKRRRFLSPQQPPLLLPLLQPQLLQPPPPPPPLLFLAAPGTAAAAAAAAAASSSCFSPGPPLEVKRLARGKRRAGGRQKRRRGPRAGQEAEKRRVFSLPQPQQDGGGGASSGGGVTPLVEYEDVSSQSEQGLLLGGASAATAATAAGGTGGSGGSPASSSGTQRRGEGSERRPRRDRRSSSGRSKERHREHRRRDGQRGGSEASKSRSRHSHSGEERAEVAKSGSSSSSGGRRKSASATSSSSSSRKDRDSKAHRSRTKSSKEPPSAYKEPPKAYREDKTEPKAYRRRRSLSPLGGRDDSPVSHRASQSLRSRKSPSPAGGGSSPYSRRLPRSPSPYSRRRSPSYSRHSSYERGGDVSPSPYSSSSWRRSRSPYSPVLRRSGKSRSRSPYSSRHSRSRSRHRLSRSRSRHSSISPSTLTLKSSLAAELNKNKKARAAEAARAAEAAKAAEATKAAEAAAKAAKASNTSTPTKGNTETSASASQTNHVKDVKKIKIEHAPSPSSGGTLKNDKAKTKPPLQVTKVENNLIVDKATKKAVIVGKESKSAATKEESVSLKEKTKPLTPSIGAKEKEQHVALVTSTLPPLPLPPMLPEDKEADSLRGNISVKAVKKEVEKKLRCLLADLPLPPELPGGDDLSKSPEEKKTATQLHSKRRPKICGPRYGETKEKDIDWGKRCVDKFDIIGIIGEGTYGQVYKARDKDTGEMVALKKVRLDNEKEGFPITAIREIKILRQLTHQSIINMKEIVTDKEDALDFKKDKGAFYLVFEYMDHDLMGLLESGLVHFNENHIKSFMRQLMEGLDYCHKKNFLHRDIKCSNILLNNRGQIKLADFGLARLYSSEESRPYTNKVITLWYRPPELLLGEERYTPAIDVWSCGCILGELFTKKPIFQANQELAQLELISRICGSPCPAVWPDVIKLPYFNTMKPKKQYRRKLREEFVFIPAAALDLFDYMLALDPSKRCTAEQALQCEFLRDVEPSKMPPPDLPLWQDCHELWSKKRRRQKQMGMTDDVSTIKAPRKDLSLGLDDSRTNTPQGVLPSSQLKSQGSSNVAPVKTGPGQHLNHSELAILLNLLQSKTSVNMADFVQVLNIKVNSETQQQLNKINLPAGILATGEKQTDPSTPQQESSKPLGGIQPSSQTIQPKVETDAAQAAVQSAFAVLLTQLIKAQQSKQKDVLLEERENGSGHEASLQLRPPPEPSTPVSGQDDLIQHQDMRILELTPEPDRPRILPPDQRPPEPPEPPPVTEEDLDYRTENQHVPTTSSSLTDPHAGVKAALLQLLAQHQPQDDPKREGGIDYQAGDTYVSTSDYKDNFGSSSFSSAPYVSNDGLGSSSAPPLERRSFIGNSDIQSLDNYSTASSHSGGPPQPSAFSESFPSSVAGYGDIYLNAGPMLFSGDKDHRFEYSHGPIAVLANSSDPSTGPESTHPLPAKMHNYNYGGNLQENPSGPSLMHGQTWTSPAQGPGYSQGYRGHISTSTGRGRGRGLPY
UniProt Q9BX84, sequence (whole entry, looked up): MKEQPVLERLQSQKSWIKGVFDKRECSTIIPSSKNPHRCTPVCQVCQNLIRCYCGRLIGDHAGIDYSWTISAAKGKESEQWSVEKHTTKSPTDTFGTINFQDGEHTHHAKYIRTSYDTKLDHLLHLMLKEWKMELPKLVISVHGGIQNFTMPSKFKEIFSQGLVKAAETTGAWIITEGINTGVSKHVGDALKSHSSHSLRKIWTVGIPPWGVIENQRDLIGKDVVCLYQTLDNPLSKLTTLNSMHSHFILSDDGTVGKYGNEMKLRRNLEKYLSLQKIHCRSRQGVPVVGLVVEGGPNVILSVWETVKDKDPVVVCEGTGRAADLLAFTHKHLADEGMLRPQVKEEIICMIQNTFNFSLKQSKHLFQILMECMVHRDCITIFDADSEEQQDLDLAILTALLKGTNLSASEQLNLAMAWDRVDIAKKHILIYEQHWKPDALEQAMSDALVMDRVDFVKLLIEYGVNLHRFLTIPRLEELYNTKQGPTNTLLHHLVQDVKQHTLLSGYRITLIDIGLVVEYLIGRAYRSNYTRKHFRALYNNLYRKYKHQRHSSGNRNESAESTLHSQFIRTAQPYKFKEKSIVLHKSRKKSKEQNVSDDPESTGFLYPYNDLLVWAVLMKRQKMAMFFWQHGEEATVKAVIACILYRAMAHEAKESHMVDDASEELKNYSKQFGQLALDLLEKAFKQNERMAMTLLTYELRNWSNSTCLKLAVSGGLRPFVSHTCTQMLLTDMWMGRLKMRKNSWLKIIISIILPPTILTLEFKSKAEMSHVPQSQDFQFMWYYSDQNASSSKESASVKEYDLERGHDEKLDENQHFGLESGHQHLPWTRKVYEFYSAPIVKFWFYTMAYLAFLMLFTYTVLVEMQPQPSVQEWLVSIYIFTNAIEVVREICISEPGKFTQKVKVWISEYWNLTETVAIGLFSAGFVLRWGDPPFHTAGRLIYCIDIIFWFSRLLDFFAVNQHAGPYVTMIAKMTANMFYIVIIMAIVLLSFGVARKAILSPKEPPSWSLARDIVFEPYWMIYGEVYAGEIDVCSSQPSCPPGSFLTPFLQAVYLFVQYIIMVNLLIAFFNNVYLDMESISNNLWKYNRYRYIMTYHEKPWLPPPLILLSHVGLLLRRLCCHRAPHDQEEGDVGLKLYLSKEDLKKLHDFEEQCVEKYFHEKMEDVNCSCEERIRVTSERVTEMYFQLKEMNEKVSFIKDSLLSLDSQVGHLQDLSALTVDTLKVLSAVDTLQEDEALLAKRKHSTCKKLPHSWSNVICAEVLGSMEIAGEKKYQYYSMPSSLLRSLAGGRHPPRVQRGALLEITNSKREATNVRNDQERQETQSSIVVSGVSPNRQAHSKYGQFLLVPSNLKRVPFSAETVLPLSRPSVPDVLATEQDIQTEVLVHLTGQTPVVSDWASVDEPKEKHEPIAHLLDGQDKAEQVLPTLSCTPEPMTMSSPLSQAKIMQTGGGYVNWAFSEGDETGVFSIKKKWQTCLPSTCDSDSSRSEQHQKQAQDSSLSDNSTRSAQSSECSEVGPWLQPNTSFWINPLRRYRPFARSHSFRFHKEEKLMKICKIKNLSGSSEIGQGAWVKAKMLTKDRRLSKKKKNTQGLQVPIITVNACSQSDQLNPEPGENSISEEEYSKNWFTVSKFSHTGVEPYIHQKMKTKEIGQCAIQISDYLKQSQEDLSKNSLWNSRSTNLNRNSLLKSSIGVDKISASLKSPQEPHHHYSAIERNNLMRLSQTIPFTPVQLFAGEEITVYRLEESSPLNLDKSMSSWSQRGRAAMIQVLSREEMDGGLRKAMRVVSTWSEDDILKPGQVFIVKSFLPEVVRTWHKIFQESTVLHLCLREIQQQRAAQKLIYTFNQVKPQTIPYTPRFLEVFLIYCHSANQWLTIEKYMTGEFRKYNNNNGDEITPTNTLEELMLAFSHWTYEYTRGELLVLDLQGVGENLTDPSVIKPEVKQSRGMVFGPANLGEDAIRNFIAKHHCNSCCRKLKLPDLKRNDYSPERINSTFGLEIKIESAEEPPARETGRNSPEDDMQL
UniProt Q14289, sequence (whole entry, looked up): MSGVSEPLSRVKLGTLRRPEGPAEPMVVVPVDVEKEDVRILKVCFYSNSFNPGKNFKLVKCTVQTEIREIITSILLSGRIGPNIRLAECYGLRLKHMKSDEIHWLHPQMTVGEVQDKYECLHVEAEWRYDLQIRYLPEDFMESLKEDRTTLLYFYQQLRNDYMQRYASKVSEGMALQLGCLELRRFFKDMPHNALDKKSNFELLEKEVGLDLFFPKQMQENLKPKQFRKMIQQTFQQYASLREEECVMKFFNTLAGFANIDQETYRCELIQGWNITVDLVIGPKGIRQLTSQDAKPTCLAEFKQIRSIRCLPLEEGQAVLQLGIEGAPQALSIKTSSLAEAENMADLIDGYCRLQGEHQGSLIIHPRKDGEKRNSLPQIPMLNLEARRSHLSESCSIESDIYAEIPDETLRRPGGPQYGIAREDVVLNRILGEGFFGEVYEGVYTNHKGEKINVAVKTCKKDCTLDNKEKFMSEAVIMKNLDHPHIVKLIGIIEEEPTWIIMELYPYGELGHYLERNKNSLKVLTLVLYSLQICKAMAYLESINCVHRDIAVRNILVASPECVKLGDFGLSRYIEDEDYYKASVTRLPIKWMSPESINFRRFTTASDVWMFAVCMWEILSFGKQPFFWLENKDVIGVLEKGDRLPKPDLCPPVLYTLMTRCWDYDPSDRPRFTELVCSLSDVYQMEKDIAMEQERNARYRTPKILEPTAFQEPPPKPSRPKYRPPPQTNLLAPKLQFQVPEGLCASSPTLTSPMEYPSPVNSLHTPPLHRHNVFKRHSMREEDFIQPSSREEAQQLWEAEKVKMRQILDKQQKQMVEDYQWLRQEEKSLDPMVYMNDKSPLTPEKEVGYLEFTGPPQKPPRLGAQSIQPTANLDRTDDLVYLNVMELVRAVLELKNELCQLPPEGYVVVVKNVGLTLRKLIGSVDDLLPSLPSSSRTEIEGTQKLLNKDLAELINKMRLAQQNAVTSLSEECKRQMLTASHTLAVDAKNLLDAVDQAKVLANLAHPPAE

Study 1
SMILES: Cn1cc(Cl)c2c(Oc3c(F)cc(Nc4cc(Cl)nc(N)n4)cc3F)ccnc21
Effect on: cell-free assay
Method: competition with immobilised ligand
Tested at: 0.1 µM
For Transient receptor potential cation channel subfamily M member 6 (TRPM6, Homo sapiens, UniProt Q9BX84): remaining binding read 77%.
Mitotic checkpoint serine/threonine-protein kinase BUB1 (BUB1, Homo sapiens, UniProt O43683) — remaining binding: 82%.
Vascular endothelial growth factor receptor 2 (KDR, Homo sapiens, UniProt P35968) — remaining binding: 93%.
The remaining binding was 83% (cGMP-dependent protein kinase 2 (PRKG2, Homo sapiens, UniProt Q13237)).
For Testis-specific serine/threonine-protein kinase 3 (TSSK3, Homo sapiens, UniProt Q96PN8): remaining binding read 100%.
For LIM domain kinase 2 (LIMK2, Homo sapiens, UniProt P53671): remaining binding read 100%.
The remaining binding was 78% (Mast/stem cell growth factor receptor Kit, autoinhibited (KIT, Homo sapiens, UniProt P10721)).
The remaining binding was 100% (Hormonally up-regulated neu tumor-associated kinase (HUNK, Homo sapiens, UniProt P57058)).
Epidermal growth factor receptor (EGFR, Homo sapiens, UniProt P00533, L858R/T790M) — remaining binding: 84%.
It gave 98% for remaining binding (Dual specificity tyrosine-phosphorylation-regulated kinase 1A (DYRK1A, Homo sapiens, UniProt Q13627)).
For Dual specificity protein kinase CLK1 (CLK1, Homo sapiens, UniProt P49759): remaining binding read 96%.
For ALK tyrosine kinase receptor (ALK, Homo sapiens, UniProt Q9UM73, C1156Y): remaining binding read 100%.
Activin receptor type-2A (ACVR2A, Homo sapiens, UniProt P27037) — remaining binding: 87%.
For Tyrosine-protein kinase Lck (LCK, Homo sapiens, UniProt P06239): remaining binding read 100%.
For Cyclin-dependent kinase 13 (CDK13, Homo sapiens, UniProt Q14004): remaining binding read 77%.
The remaining binding was 88% (Serine/threonine-protein kinase WNK2 (WNK2, Homo sapiens, UniProt Q9Y3S1)).
MAP/microtubule affinity-regulating kinase 4 (MARK4, Homo sapiens, UniProt Q96L34) — remaining binding: 100%.
Cyclin-dependent kinase 4, with cyclin D1 (CDK4, Homo sapiens, UniProt P11802) — remaining binding: 100%.
It gave 90% for remaining binding (Dual specificity mitogen-activated protein kinase kinase 1 (MAP2K1, Homo sapiens, UniProt Q02750)).
TGF-beta receptor type-1 (TGFBR1, Homo sapiens, UniProt P36897) — remaining binding: 93%.
The remaining binding was 71% (Ribosomal protein S6 kinase alpha-3, N-terminal kinase domain (RPS6KA3, Homo sapiens, UniProt P51812)).
Serine/threonine-protein kinase SIK3 (SIK3, Homo sapiens, UniProt Q9Y2K2) — remaining binding: 100%.

Study 2
Target: Calcium/calmodulin-dependent protein kinase type II subunit alpha (CAMK2A, Homo sapiens, UniProt Q9UQM7)
UniProt Q9UQM7, sequence (whole entry, looked up): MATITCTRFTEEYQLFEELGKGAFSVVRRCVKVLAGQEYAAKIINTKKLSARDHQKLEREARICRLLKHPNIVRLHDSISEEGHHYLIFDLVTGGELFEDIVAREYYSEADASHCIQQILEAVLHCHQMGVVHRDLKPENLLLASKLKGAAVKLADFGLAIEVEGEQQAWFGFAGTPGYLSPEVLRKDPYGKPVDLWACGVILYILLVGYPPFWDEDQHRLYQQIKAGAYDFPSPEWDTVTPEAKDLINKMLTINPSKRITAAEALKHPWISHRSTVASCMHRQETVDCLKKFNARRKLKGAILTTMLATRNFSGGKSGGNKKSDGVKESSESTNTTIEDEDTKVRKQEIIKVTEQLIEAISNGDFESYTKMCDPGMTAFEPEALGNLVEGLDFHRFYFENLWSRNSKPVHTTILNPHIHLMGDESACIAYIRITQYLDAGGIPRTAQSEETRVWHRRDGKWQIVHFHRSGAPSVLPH
Effect on: enzyme activity
Mode: inhibitor
Tested at: 10 µM
With Clc1ccc(C(Cn2ccnc2)OCc2ccc(Sc3ccccc3)cc2)c(Cl)c1 (centres unmarked) the inhibition was -6%.
COC(=O)/C=C/C(C)=C\C=C\C(C)=C\C=C\C=C(C)\C=C\C=C(C)\C=C\C(=O)O has an inhibition of -20%.
The inhibition of CN(CCCCCCCCCCN(C)C(=O)Oc1cccc([N+](C)(C)C)c1)C(=O)Oc1cccc([N+](C)(C)C)c1 is reported as -14%.
CC(=O)OC(C)OC(=O)C(C)c1ccc(-c2ccccc2)c(F)c1 (centres unmarked) has an inhibition of -7%.
O=C(O)c1ccoc1 has an inhibition of -5%.
CC(=O)c1ccc2c(c1)N(CCCN1CCC(CCO)CC1)c1ccccc1S2 has an inhibition of -7%.
C[C@H](CC(=O)O)[C@H]1CC[C@H]2[C@@H]3[C@H](O)C[C@@H]4C[C@H](O)CC[C@]4(C)[C@H]3C[C@H](O)[C@]12C gave an inhibition of 44%.
C[C@@H]1O[C@@H](Oc2c(-c3ccc(O)cc3)oc3cc(O[C@@H]4O[C@@H](C)[C@H](O)[C@@H](O)[C@H]4O[C@@H]4O[C@H](CO)[C@@H](O)[C@H](O)[C@H]4O)cc(O)c3c2=O)[C@H](O)[C@H](O)[C@H]1O gave an inhibition of -29%.
CCCCC(=O)O[C@H](CC(=O)[O-])C[N+](C)(C)C has an inhibition of -27%.
The inhibition of O=C(O)CCCCCCCCCCCC(=O)O is reported as 10%.
The inhibition of CCN1CCCC1CNC(=O)c1cc(S(=O)(=O)CC)c(N)cc1OC (centres unmarked) is reported as 0%.
For CCOc1ccc2ccccc2c1C(=O)N[C@@H]1C(=O)N2[C@@H]1SC(C)(C)[C@@H]2C(=O)O, the inhibition was 1%.
O=P(O)(O)C(O)(Cc1cccnc1)P(=O)(O)O has an inhibition of -8%.
N[C@H](CC(=O)O)C(=O)O has an inhibition of -13%.
COC(=O)c1cccc(CCN(C)CCC[C@@](C#N)(c2ccc(OC)c(OC)c2)C(C)C)c1 gave an inhibition of 3%.
C[C@@H](O[C@H]1OCCN(Cc2n[nH]c(=O)[nH]2)[C@H]1c1ccc(F)cc1)c1cc(C(F)(F)F)cc(C(F)(F)F)c1 has an inhibition of -2%.
O=C(NC1CCN(CCCCC2(C(=O)NCC(F)(F)F)c3ccccc3-c3ccccc32)CC1)c1ccccc1-c1ccc(C(F)(F)F)cc1 gave an inhibition of -17%.
Cc1c(Cl)cccc1Nc1ccccc1C(=O)O gave an inhibition of -3%.
For CC(=O)N[C@@H](CCC(N)=O)C(=O)O, the inhibition was 0%.
For N#Cc1ccnc(N2C(=O)CC[C@H]2C(=O)N(c2cncc(F)c2)[C@H](C(=O)NC2CC(F)(F)C2)c2ccccc2Cl)c1, the inhibition was -2%.
CC(C)(C)NCC(O)c1cc(O)cc(O)c1 (centres unmarked) gave an inhibition of -7%.
For CCCCC/C=C/C=C/C(=O)NCC(C)C, the inhibition was -11%.
For O=C(/C=C/c1cccc(S(=O)(=O)Nc2ccccc2)c1)NO, the inhibition was -8%.

Study 3
SMILES: CCc1[nH]c(-c2ccc(OC)cc2)nc1-c1ccncc1
Effect on: enzyme activity
Mode: inhibitor
Tested at: 0.5 µM
Relative to: control
It gave 101% for remaining activity (Serine/threonine-protein kinase Nek9 (NEK9, Homo sapiens, UniProt Q8TD19)).
The remaining activity was 95.3% (Casein kinase II subunit alpha' (CSNK2A2, Homo sapiens, UniProt P19784)).
For Proto-oncogene tyrosine-protein kinase receptor Ret (RET, Homo sapiens, UniProt P07949): remaining activity read 99.2%.
It gave 98% for remaining activity (Calcium/calmodulin-dependent protein kinase type 1G (CAMK1G, Homo sapiens, UniProt Q96NX5)).
The remaining activity was 101% (Rho-associated protein kinase 2 (ROCK2, Homo sapiens, UniProt O75116)).
Protein-tyrosine kinase 2-beta (PTK2B, Homo sapiens, UniProt Q14289) — remaining activity: 94.6%.
The remaining activity was 107% (G protein-coupled receptor kinase 5 (GRK5, Homo sapiens, UniProt P34947)).
For Cyclin-dependent kinase 7 (CDK7, Homo sapiens, UniProt P50613): remaining activity read 97.3%.
It gave 102% for remaining activity (Myotonin-protein kinase (DMPK, Homo sapiens, UniProt Q09013)).
The remaining activity was 99.7% (STE20-like serine/threonine-protein kinase (SLK, Homo sapiens, UniProt Q9H2G2)).
For Dual specificity tyrosine-phosphorylation-regulated kinase 4 (DYRK4, Homo sapiens, UniProt Q9NR20): remaining activity read 100%.
For Epidermal growth factor receptor (EGFR, Homo sapiens, UniProt P00533): remaining activity read 103%.
For Cyclin-dependent kinase 2, with cyclin A (CDK2, Homo sapiens, UniProt P24941): remaining activity read 99.5%.
Homeodomain-interacting protein kinase 3 (HIPK3, Homo sapiens, UniProt Q9H422) — remaining activity: 106%.
For Calcium/calmodulin-dependent protein kinase type 1D (CAMK1D, Homo sapiens, UniProt Q8IU85): remaining activity read 104%.
The remaining activity was 103% (NT-3 growth factor receptor (NTRK3, Homo sapiens, UniProt Q16288)).
Mitogen-activated protein kinase kinase kinase 2 (MAP3K2, Homo sapiens, UniProt Q9Y2U5) — remaining activity: 98.2%.
Serine/threonine-protein kinase D1 (PRKD1, Homo sapiens, UniProt Q15139) — remaining activity: 100%.
The remaining activity was 101% (Serine/threonine-protein kinase BRSK1 (BRSK1, Homo sapiens, UniProt Q8TDC3)).
For Mitogen-activated protein kinase kinase kinase 8 (MAP3K8, Homo sapiens, UniProt P41279): remaining activity read 95%.
The remaining activity was 91.8% (Proto-oncogene tyrosine-protein kinase ROS (ROS1, Homo sapiens, UniProt P08922)).
The remaining activity was 93.7% (Aurora kinase A (AURKA, Homo sapiens, UniProt O14965)).
The remaining activity was 100% (Mitogen-activated protein kinase 10 (MAPK10, Homo sapiens, UniProt P53779)).
The remaining activity was 95.7% (Serine/threonine-protein kinase N2 (PKN2, Homo sapiens, UniProt Q16513)).

Study 4
Structure (SMILES): N=C(N)NC(=O)c1cnn(-c2cccc3ncccc23)c1C1CC1
Mode: agonist
Tested at: 10 µM
Relative to: untreated
Adhesion G protein-coupled receptor D2 (ADGRD2, Homo sapiens, UniProt Q7Z7M1); β-arrestin recruitment, PRESTO-Tango — “fold over basal”: 1.02.
It gave 1.03 for “fold over basal” (Adenosine receptor A1 (ADORA1, Homo sapiens, UniProt P30542); β-arrestin recruitment, PRESTO-Tango).
The “fold over basal” was 1.41 (Relaxin receptor 1 (RXFP1, Homo sapiens, UniProt Q9HBX9); β-arrestin recruitment, PRESTO-Tango).
For Alpha-1B adrenergic receptor (ADRA1B, Homo sapiens, UniProt P35368); β-arrestin recruitment, PRESTO-Tango: “fold over basal” read 0.98.
NPBWR2 (Homo sapiens, UniProt P48146); β-arrestin recruitment, PRESTO-Tango — “fold over basal”: 1.13.
Free fatty acid receptor 4 (FFAR4, Homo sapiens, UniProt Q5NUL3); β-arrestin recruitment, PRESTO-Tango — “fold over basal”: 0.77.
GPR32 (Homo sapiens, UniProt O75388); β-arrestin recruitment, PRESTO-Tango — “fold over basal”: 1.04.
Free fatty acid receptor 1 (FFAR1, Homo sapiens, UniProt O14842); β-arrestin recruitment, PRESTO-Tango — “fold over basal”: 1.04 fold.
G-prodeshotein coupled receptor 4 (GPR4, Homo sapiens, UniProt P46093); β-arrestin recruitment, PRESTO-Tango — “fold over basal”: 1.82.
The “fold over basal” was 1.17 (ADGRG2 (Homo sapiens, UniProt Q8IZP9); β-arrestin recruitment, PRESTO-Tango).
It gave 1.07 for “fold over basal” (G-protein coupled receptor 39 (GPR39, Homo sapiens, UniProt O43194); β-arrestin recruitment, PRESTO-Tango).
P2Y purinoceptor 6 (P2RY6, Homo sapiens, UniProt Q15077); β-arrestin recruitment, PRESTO-Tango — “fold over basal”: 1.47.
It gave 1.27 for “fold over basal” (Extracellular calcium-sensing receptor (CASR, Homo sapiens, UniProt P41180); β-arrestin recruitment, PRESTO-Tango).
Prostacyclin receptor (PTGIR, Homo sapiens, UniProt P43119); β-arrestin recruitment, PRESTO-Tango — “fold over basal”: 0.96.
For Putative adhesion G protein-coupled receptor F2P (ADGRF2P, Homo sapiens, UniProt Q8IZF7); β-arrestin recruitment, PRESTO-Tango: “fold over basal” read 1.39.
For Endothelin receptor type B (EDNRB, Homo sapiens, UniProt P24530); β-arrestin recruitment, PRESTO-Tango: “fold over basal” read 0.92.
It gave 15.2 for “fold over basal” (Nociceptin receptor (OPRL1, Homo sapiens, UniProt P41146); PRESTO-Tango arrestin recruitment).
